Results gathered from unrelated publications.
A part holds a random share of what one study measured. Substitutions count along the parent as printed.

Study 1
Target: Interferon regulatory factor 7, full length, phosphomimetic (IRF7, Homo sapiens, UniProt Q92985, residues 1-503, S101K/S471D/S472D/S475D/S476D/S477D/S483D/S484D/S487D)
Sequence of UniProt Q92985 (whole entry, unmodified, looked up): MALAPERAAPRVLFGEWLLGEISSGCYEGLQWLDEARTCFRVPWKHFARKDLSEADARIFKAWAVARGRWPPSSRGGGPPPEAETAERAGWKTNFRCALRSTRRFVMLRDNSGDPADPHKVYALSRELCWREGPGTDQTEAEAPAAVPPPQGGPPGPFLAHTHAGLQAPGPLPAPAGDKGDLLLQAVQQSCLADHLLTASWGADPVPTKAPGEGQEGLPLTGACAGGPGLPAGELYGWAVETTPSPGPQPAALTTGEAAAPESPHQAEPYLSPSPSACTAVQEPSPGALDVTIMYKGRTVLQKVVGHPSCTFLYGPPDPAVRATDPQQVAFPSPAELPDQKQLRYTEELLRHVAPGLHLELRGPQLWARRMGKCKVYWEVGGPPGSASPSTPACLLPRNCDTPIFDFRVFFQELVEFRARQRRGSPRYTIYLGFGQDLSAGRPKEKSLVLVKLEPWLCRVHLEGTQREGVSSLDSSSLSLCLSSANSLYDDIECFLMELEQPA
Method: protein-binding microarray
Form: double-stranded DNA, one strand shown
Medium: in vitro
Concentration: 250 nM
Notes: 60-bp whole probe
With: salmon DNA 0.4 mg/ml
Reference: random background probes
Reading: higher = stronger binding
All sequences stand within: GCCTAGCAC … GTCTTGATTCGCTTGACGCTGCTG
| Strand | log fluorescence |
| --- | --- |
| GACGATATCAGTTTCGAGATGTGCTAG | 5.41 z-score |
| GACGATATGGGGACTGGAGACGTGCTA | -0.364 z-score |
| TCAACTAGGGAATTTAGAACTGTGCTA | -0.297 z-score |
| GACGATTTCAGTATCGGGACGTGCTAG | 0.419 z-score |
| AGAGAGAGTGAGGAACAACAGTGCTAG | -0.569 z-score |
| TTAGGGTTCGGGTTTCGGTTAGTGCTA | 7.55 z-score |
| GACGATCTCGGTATCGGGACGTGCTAG | 0.325 z-score |
| TTAGGTTTCCTTCGCCTTTAGTGCTAG | 0.956 z-score |
| TTACAATTTGCTTTAGTCATGTGCTAG | -0.0116 z-score |
| TCACTCCTATCTTATGATACTGTGCTA | 0.6 z-score |
| TTAGTACTGAGTCTCGATTAGTGCTAG | 1.59 z-score |
| TCAGCTTTGACTCTTTCACTGTGCTAG | -0.44 z-score |
| TCACCTTTCAGTTTTCCACTGTGCTAG | 1.11 z-score |
| CTCGGGACAGGCACTCTACGGTGCTAG | -0.727 z-score |
| CTTCTCCTCTAGGTTCTCTGAGTGCTA | 0.599 z-score |
| TTAGAACGGAGTATCGATTAGTGCTAG | 0.338 z-score |
| GACGAACTGGGATTTCGAGACGTGCTA | -0.287 z-score |
| TACGATTTCAGTTCCGAGACGTGCTAG | 0.603 z-score |
| GACGATTTCGGGTTTCGAGTCGTGCTA | 7.49 z-score |
| TTAAAACTGGGGTTTCGATTAGTGCTA | 6.9 z-score |
| TTAGATTTCGGGTTTGGATTAGTGCTA | 1.86 z-score |
| TTAGGTATCCAACTGCTTTAGTGCTAG | -0.319 z-score |
| GACTGTCTCCTTATCCTGACGTGCTAG | 0.0127 z-score |
| GACGGTATCGTCTTTCGGGACGTGCTA | 0.294 z-score |

Study 2
Target: RNA binding protein fox-1 homolog 2, RRM domain, GST-SBP tag (RBFOX2, Homo sapiens, UniProt O43251-10, residues 100-194)
Method: RNA Bind-n-Seq
Form: RNA
Medium: in vitro
Concentration: 365 nM
Notes: natural RNA segment, single round, ends assumed
Reference: no-protein control
Reading: higher = stronger binding
Residues (chain): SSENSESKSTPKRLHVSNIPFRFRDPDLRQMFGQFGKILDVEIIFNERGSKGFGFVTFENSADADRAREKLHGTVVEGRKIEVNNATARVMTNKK
| Strand | RBNS enrichment (R) |
| --- | --- |
| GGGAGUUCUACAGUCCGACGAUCAUGAUUUAUGGGAAUGAAGCAAGUACUGAAAUCAAAUUAAAUACUCCCUGGGUCCUGGGUCAGUUUGACCCUAGCCCUGGGGUGAGGCAAGCCCCCUCCUAUGAGGAUGAUGGAAUUCUCGGGUGCCAA | 0.419 |
| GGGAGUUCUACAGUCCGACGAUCAGCUUAAAAUGCAUGACAGGAUAGUUUCUCAUUCUUUGAAACAUUUUCAGUCUCAAACUUUCUGCAUACUUUGCCUCCUUUAAAAGUUACAAAUAUUACAAAGUAAAAUCUGGAAUUCUCGGGUGCCAA | 0.578 |
| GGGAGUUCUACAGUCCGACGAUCUCAGUUUUGCUCCCUCUGGGUUUUUAUAAGAUUUGCCAUGACAUUUCAUCUGGGUGGUCCAGAUAGUAAAGCGCUUUUAUUUCUGGAGCUGGGGAAGCAGAUGACUCUUCUGGAAUUCUCGGGUGCCAA | 0.585 |
| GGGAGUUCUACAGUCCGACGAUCGGAGAGCAAAAAGUAUGAAUGGGAUGGAGCUAAGAAGUCUGAAUACUUAAUGAAAUGGACUUUUUGGAAAGAAAUCAGAUGAAGGCAUAAAAUUUAGUUCUUAGCUCUUGUGGAAUUCUCGGGUGCCAA | 0.964 |
| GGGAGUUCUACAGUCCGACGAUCAGUUUUUUGCUGUCUUUAAUUUACUAGAAUUGCCUAAUUUUUAGUUGAUUUCUCUACAGAGCUUAGCUUGUGUAGUUAUUUCUCUUUUACUGUUGCUUUGGUGUGUCUUGUGGAAUUCUCGGGUGCCAA | 1.46 |
| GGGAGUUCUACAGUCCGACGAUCUGUAGGUGUUUUCAUCUGUCAUGAAGGGACAGAUGAGAUCCUACUACUUGCGAAGUUUCUAUGCAUACCUUUAAGUUCAGGCCCUAGGUGAAGGACAGUCCCUCAGCCUUUGGAAUUCUCGGGUGCCAA | 0.493 |
| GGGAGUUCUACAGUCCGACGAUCUAAAAGUACAAGCCAGUGCUUUGUCUUAGUAGUUUUAAGAAAUUAAAGCAAACAGACUUAAGUUUCCUUGUAUUGAAGAUAACCUAUGACUGUAUGUUUUGCAUUCCUAGUGGAAUUCUCGGGUGCCAA | 0.463 |
| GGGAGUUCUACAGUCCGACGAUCUAAUCAAGCACUAUGUUAAUACUGUAAUAUCAGAAUACUAUGUUGCAUUAUUUAAAAUGUUCAAAUUGAAUAGAUUAAAAAGUUUUUAAAUGCUAUUGCAUCAUAUAAUUUGGAAUUCUCGGGUGCCAA | 0.735 |
| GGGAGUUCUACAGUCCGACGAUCAUGAAUGAAGAGUAAAAUAAUUACAGGAAAAGAAUGCAUGAUUUUUCAUUGUCACACCAAAUAACCAGUUGGACAAUAUUGCAUUUUCAAAAUGGAGAGUUAUUUAAAGUUGGAAUUCUCGGGUGCCAA | 17 |
| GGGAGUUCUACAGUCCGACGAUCAUCUUGCUCCCAGGACCUGCCUCUUCCCAGGCUUCCUGGGGAAGAGUUGUACGCCCAGGCAACAAGGGCUGAGCUGCGCUUGCGUGGCUGUUUCAUGACCGCUUGUUUUUUGGAAUUCUCGGGUGCCAA | 0.215 |
| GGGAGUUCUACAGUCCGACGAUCCUGUACUGCAGCCAAGGUGACGUGUGACUUGGAUUUGAGUGGAGUUGGGCUUAGCCUUAGUCUCAUUCAAUCUCCAUUAUUACAGCCAUGGGGAAGAGUGAAAGAUAUAAUGGAAUUCUCGGGUGCCAA | 0.611 |
| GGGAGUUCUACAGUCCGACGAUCUAGGAGCAGUGUGCAAUUCCUGAUUCACUGCACAGUAUUAUGUCAUAAUUGCAGGAAUUAUUUUUUGUUUUUAAAACUGGAUUUGGGGCACAUUCAUUCACCCCAACACUUGGAAUUCUCGGGUGCCAA | 0.54 |

Study 3
Target: ABI1, truncated, D143A, DHFR fusion (Arabidopsis thaliana)
Method: DHFR PCA, deep sequencing
Medium: yeast
Notes: methotrexate growth selection, single substitutions
With: (+)-ABA 0.032 µM
Reference: wild-type fitted maximum
Reading: higher = stronger binding
Parent: PYL1, truncated, DHFR fusion (Arabidopsis thaliana); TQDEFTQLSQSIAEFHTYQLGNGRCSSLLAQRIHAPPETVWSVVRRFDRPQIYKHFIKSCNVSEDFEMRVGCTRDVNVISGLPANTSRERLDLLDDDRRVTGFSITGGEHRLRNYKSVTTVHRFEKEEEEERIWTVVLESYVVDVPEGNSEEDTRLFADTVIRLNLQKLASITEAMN
| Change | relative binding score [%] |
| --- | --- |
| N77Y | 37.5 |
| R111C | 11.6 |
| V161R | 6.16 |
| E131L | 35.2 |
| T39E | 9.45 |
| E64T | 18.5 |
| R24N | 3.59 |
| R74V | -3.31 |
| L138A | 2.78 |
| V145L | -3.6 |
| T120H | -5.93 |
| N114Q | -10.6 |
| T154Y | -17.5 |
| N114I | 7.11 |
| F66I | -3.56 |
| K116V | -1.69 |
| K54P | -7.95 |
| L20C | 34.7 |
| V44T | -8.14 |

Study 4
Target: Histone acetyltransferase KAT6A, winged helix 1, GST fusion (KAT6A, Homo sapiens, UniProt Q92794, residues 1-85)
Method: protein binding microarray
Form: double-stranded DNA, one strand shown
Medium: in vitro
Concentration: not given
Notes: 8-mer, flanks averaged, mean of 2 arrays, mostly near background
Reference: not given
Reading: higher = stronger binding
Construct (chain): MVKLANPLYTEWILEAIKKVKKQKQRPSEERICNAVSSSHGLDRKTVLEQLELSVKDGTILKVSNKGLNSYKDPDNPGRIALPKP
| Strand | E-score |
| --- | --- |
| CAAGCAGC | -0.122 |
| AAAAATCC | -0.0748 |
| ACTGCGCA | 0.281 |
| CAAGCCCG | 0.182 |
| CGTGCGGC | 0.386 |
| TGGGTAAA | -0.1 |
| GTTTGTTA | -0.0278 |
| AGAGTGGA | -0.182 |
| GATGAACC | -0.04 |
| GCTGGGTA | -0.0731 |
| AGCCCCTG | -0.0728 |
| ATCTGTTG | -0.312 |
| CACCCCGC | 0.367 |
| TACAAGAA | -0.185 |
| ACCGGTTC | 0.111 |
| GTTCGGGA | 0.0958 |
| CTGCTACA | -0.116 |
| AAAATGAA | -0.191 |
| CCCTGCGC | 0.222 |
| CGTAGACC | 0.148 |
| AGGACCCC | -0.0221 |
| TGGCGACA | -0.0598 |
| CCGCTGTC | 0.228 |
| GACAAACC | -0.0488 |
| CGATATCA | -0.0957 |

Study 5
Target: Sal-like protein 4, full length isoform A (SALL4, Homo sapiens, UniProt Q9UJQ4, residues 1-1053)
Sequence of UniProt Q9UJQ4 (whole entry, looked up): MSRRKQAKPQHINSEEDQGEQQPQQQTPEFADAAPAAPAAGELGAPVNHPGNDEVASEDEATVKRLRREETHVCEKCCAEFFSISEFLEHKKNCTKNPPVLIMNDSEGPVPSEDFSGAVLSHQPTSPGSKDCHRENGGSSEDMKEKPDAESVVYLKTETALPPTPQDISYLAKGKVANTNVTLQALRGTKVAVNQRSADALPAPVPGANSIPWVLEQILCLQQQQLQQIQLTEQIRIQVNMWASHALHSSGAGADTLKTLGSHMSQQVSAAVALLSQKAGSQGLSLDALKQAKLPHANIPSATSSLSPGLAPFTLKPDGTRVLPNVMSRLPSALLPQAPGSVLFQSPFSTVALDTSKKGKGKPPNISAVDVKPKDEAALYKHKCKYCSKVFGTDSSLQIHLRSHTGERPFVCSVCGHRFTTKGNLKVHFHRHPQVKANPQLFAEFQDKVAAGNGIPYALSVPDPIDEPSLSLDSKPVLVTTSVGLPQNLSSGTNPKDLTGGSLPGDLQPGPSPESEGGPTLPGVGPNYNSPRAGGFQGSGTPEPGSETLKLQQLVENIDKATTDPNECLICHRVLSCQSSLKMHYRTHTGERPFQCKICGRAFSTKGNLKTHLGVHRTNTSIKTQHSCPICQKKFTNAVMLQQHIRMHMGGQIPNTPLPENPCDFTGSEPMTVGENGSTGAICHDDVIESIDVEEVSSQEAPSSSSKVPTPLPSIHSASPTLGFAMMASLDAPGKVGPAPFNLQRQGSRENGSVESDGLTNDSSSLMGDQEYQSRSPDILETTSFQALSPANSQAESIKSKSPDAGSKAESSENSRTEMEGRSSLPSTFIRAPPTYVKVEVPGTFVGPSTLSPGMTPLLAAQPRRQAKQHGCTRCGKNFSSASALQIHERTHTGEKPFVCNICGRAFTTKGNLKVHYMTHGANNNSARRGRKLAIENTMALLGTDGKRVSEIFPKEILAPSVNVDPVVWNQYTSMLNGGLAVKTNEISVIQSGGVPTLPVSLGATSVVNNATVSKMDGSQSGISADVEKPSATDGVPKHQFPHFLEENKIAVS
Method: universal PBM
Form: double-stranded DNA, one strand shown
Medium: in vitro
Concentration: 600 nM
Notes: 8-mer, flanks averaged, mean of replicates
Reading: higher = stronger binding
| Strand | E-score |
| --- | --- |
| CGGCTAGC | -0.32 |
| TAAGAGAA | 0.187 |
| CGGGCGCC | -0.395 |
| GCTAAGTA | 0.0775 |
| GCTACGCC | -0.286 |
| ACGTACAT | 0.138 |
| ATTCAGTA | 0.303 |
| CACACTTC | -0.0478 |
| CGGAGAGA | -0.244 |
| GAGCCTCA | -0.196 |
| CATCGGAA | 0.0715 |
| TTCGACAA | 0.199 |
| TGCTAGAA | -0.00907 |
| AGTCAGAC | 0.00477 |
| ACCATGGT | -0.0704 |
| CCGTTATA | 0.179 |
| CTATCACC | -0.0713 |
| GGCCGCTA | -0.298 |
| AGGGATCG | -0.174 |
| AACCGCTA | -0.101 |
| CGCTTTAC | 0.0401 |
| TAATGACA | 0.216 |
| AGATTTTG | 0.141 |
